Experimental data gathered from unrelated publications.
Parts stem from different laboratories: compare values within a part only.

Set 1 — technique: protein-binding microarray; molecule type: double-stranded DNA, one strand shown; sample: in vitro; concentration: 2540 nM top; setting: 60-bp whole probe; added: salmon DNA 0.4 mg/ml; relative to: random background probes; reading: higher = stronger binding; shared flanks, not repeated: GCCTAGCAC … GTCTTGATTCGCTTGACGCTGCTG
Target: Interferon regulatory factor 3, full length, phosphomimetic (IRF3, Homo sapiens, UniProt Q14653, residues 1-427, S386D/S396D/S398D/S402D/T404D/S405D)
Chain of UniProt Q14653 (whole entry, unmodified, looked up): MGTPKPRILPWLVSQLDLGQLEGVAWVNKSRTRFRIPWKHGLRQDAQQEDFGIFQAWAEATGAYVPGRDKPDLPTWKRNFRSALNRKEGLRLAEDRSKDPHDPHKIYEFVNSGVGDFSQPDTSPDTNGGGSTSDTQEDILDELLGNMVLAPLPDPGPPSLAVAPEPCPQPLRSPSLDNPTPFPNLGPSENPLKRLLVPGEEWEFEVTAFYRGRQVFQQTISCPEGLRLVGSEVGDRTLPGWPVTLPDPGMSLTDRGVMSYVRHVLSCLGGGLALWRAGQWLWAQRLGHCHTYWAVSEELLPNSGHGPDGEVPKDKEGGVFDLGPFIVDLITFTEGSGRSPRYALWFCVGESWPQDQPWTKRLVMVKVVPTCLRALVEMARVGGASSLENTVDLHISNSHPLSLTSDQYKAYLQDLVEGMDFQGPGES
Strand	fitted relative affinity [z-score]
GTAGGTATCCTACTGCTTTAGTGCTAG	2.58
GCCCATCTCTGCTCCTTCTGGTGCTAG	1.45
TCATCAATCATTTTCGTACTGTGCTAG	1.09
TCAACTCTGAACCTTCAGACTGTGCTA	-0.0166
AACGGTCTCGGTTTCGGGACGTGCTAG	4.02
TTAGGTCTACTTATCCTTTAGTGCTAG	0.587
GACGGTATCCTTATCCTGAGGTGCTAG	5.1
GACAGTTTCCTACTGCTGACGTGCTAG	5.72
GACGGTATCGGGTATCGGGACGTGCTA	2.12
TTAGGTTTCGGGTTTCAGTTAGTGCTA	5.6
TTAGGTTTCGGGAATCGGTTAGTGCTA	3.13
GACGAACTGGGGTTTCGAGACGTGCTA	0.324
TTAGATTTTAGACTGGATTAGTGCTAG	-0.135
TCAAATATATATATTGTACTGTGCTAG	0.271
TTAGATTTCACTATCGATTAGTGCTAG	2.51
TGTCCTTTCTCCATGGGTATGTGCTAG	7.28
GACGGTATCGGATTTCGGGACGTGCTA	3.67
GACGGTCTCCTTATCTTGACGTGCTAG	2.36
TTAGGACTGGGGTTTCGGTAAGTGCTA	1.5
TTAGGTATCGCTTTCGGTTAGTGCTAG	5.62
GACGAACTGAGTTTCAAGACGTGCTAG	0.137
TTAGGACTGGGGTATCGGCTAGTGCTA	-0.937

Set 2 — technique: RNA Bind-n-Seq; molecule type: RNA; sample: in vitro; concentration: 365 nM; relative to: no-protein control; reading: higher = stronger binding
Target: RNA binding protein fox-1 homolog 2, RRM domain, GST-SBP tag (RBFOX2, Homo sapiens, UniProt O43251-10, residues 100-194)
Setting: natural RNA segment, single round, ends assumed
Shared flanks, not repeated: GGGAGUUCUACAGUCCGACGAUC … UGGAAUUCUCGGGUGCCAA
Residues (chain): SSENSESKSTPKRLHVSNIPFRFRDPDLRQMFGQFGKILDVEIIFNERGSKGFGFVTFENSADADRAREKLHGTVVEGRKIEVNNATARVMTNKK
Strand	RBNS enrichment (R)
CCCCAUUGUAGUCAGGUUCCCAGGAUGGAGACAGUGCUCCUGGGGUGGCCACUCAGUGAGGAGGCUCUCUGGGGUCCAGUGUUUGGAAGAGGAGGAAAGGGGACCAAAGG	0.397
AGACGUGAGUUAUCCAAGUAUUUAUUUUGUGUAGUGUGUAAGAAUGCUAAAUAAAAUGUUAUACAAGUCAAGUUUUUGCGUGUUAUUUUUCCUGAGAAGUAAUUUUUAGG	0.439
UGCUCUGGGCCCAUGAGGCCUACUUCUUCCUUUUCUCAUGGAAUCCUGGGUAGAAUCUUAAUAAUAGAAGGACUUAGAGAGAAAAUCAAAUCCACCCUCCUUGUGGGGAA	0.363
GGAUGUUGGAGUCUGGUGUAGAGACAGGCAGGUUGCAGAAAAGCACAGAUCUUUGCCAGUGGUUGGCCCUGAUUGAAAACCUGUUUGAAACAGACUGUGUAGGAAAAAUC	0.526
UGUAGCCUGAGUGUCCACAGGGACACACGUGAGCCACAGGGCUAGAAGCACAGGCCCGUCACCCCAGGAGGAAAAGCCCAGGGUCUGGGGCAGCAGAGCCAUCGCAUCAU	1.2
UGACAUUUUAAGUACAACUUUUAAGGACUAAUUACUGUGAUGGACACAGAAAUGUAGCUGUGUUCUGGAACUGAAUCUUACAUGGUAUACUUAGUGCUGCUGGGUAAUUU	0.349
UCUUGUGUGUGCGUUAGACUUGAUGAGAAGGUGUGAACUCUGCAGAAAGUCUCUUCUUCAUCACUGAAUUCAGUCACUUGGAGAUGACAACUUCAAAUGCUAACCCGAUG	0.641
ACAAAGUCUAAUGCAUAAGCAGAACCGAAAAGCAGACCGACAAUUGGUUAACAAAUAAUUCUUUUUUUUUCUUUUUUGAUGUGUUGAGUCUUAUUUUUGUGGGGUUUUUU	0.436
AGGGGUAUUAUCUGAACAAUAUAAAAACAGAAUGAAGCAAGCUAAUCUGAAUCAUCACUUUAGGGUAUCCAUAGCCUAAGAAAUGUGUCAGAAGAUCUAAAGCCUUCCUU	0.386
CAGUGAGGCUGCAGUGGGUCAUUUGGUUCCACCUUCAUCUUUCAGAGCCAGCUGACCUCAGAUUGCCAAAAGUUUGAAGGCCAUGUGCAUGUUCUGUGUGACCCAAGCCU	6.94
CCUUUUCCGUAGGUCCUGAGUUCAAAUCCCAGUAACCACAUGGUGGCUGACAACCACCCGUAAUGAGAUCUGAUGCCCUCUUCUGUUGCUGUCUGAAGACAGCUACAGUA	0.226
ACCCCUUAAUAAUAUCAGCUUAAUUUUAAUGACAACUAAAUAUGCUGAAGUGAGGAUUUAGUAUUUUUUAAAAAAGCAAAACAAGGUUCAGUAGUCCUCAGCAAUUCUCC	0.562

Set 3 — technique: universal PBM; molecule type: double-stranded DNA, one strand shown; sample: in vitro; concentration: not given; reading: higher = stronger binding
Target: Sal-like protein 4, full length isoform B (SALL4, Homo sapiens, UniProt Q9UJQ4-2, residues 1-616)
Setting: 8-mer, flanks averaged, mean of replicates
Target sequence (chain): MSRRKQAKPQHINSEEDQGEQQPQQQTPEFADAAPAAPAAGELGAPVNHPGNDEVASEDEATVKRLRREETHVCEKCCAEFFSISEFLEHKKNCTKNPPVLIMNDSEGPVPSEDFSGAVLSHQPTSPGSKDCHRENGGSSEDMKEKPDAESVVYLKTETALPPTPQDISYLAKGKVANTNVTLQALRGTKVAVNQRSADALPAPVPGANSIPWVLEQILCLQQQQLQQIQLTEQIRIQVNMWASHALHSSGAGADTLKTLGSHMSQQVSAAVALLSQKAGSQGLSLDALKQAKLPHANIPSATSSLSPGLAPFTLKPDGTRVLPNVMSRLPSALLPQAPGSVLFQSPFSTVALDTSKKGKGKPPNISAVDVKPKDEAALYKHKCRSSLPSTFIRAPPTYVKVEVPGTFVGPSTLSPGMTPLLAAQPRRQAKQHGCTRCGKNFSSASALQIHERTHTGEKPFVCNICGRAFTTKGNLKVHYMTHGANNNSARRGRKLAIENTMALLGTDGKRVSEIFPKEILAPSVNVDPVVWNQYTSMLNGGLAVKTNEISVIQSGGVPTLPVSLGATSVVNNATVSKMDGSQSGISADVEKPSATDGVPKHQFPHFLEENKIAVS
Strand	E-score
GCGCTCAC	-0.251
AATGGGGT	-0.00374
TCACACCA	0.0997
ATGGAGGC	-0.0465
GTGTAGAA	0.101
AGCATCAG	-0.0439
CCCTGAGC	-0.311
CAATGAGA	0.0605
AGACCGGG	-0.336
TACTCTCA	0.119
CCATGGCC	-0.32
TAAAAAGA	0.259
GTCGAAAA	0.0628
GGATACAA	0.0931
ACTACTCA	0.0647
CGACTGAC	-0.116
CTCCGACC	-0.242
CTATTGTA	0.344
GAGGGCCA	-0.268
ATTCGTGG	-0.0599
AACCGGCC	-0.384
ATTCCCCG	-0.0193
CTACGACC	-0.192
AGTCTCCC	-0.158

Set 4 — technique: protein binding microarray; molecule type: double-stranded DNA, one strand shown; sample: in vitro; concentration: not given; relative to: not given; reading: higher = stronger binding
Target: Histone acetyltransferase KAT6A, winged helix 2, GST fusion (KAT6A, Homo sapiens, UniProt Q92794, residues 85-181)
Setting: 8-mer, flanks averaged, mean of 2 arrays, mostly near background
Target sequence (chain): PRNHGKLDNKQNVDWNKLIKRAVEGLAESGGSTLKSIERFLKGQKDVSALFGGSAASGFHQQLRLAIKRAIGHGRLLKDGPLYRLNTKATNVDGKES
Strand	E-score
AAGCATGA	0.165
AAGTATCA	0.0301
GTCAGCCA	-0.0612
CTGTGTTA	-0.14
CCTGTCAG	-0.0235
GATTCCGA	0.0413
GAATTGTA	0.0452
CTTATCAA	0.149
TATTACAA	-0.048
CGGCGCGC	0.304
AACTGATC	-0.066
ACCACGGG	0.0561
ATGAACGC	0.19
CGGGCTCC	0.182
AGCTGCGC	0.23
ACAGTTAG	-0.17
AGGATAAC	-0.23
CCAGGACC	0.146
GCTTGTGA	-0.0847
CTCTAGCA	-0.0334
CTCCCGCC	0.141
CGAGTGTA	-0.0412
CCTCCGTC	0.0134
ATTCAGTG	-0.00419
AGAGACCT	-0.197

Set 5 — technique: RNAcompete; molecule type: RNA; sample: in vitro; concentration: 20 nM; setting: 7-mer, probes averaged, single round; relative to: mean of 7-mers; reading: higher = stronger binding
Target: PABPC1L2, full length, GST fusion (mouse, UniProt A0ABA7IW68)
Residues (chain): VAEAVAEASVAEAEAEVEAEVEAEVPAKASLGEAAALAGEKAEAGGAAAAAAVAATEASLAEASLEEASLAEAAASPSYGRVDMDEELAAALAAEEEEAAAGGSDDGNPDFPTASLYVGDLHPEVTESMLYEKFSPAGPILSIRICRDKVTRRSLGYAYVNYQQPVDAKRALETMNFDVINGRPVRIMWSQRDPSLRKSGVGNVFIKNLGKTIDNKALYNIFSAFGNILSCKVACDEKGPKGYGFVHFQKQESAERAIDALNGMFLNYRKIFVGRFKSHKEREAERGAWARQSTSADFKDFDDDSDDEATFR
Strand	7-mer Z-score
UAAUUCC	-0.186
CGGCCAU	-0.257
UGAAAGU	0.0261
UCGAGCG	-0.242
UUGCAUG	-0.197
CCGUCUA	-0.316
UCGCGAU	-0.298
CUGACGA	-0.0826
CUCCUUU	-0.267
CGGUGCC	-0.142
UGUUGAG	-0.286
CGGGACC	0.0279
AGGCGGA	0.385
CCCUGUG	-0.331
UCUUCGG	-0.378
ACUCGUC	-0.418
UUUCCCA	-0.342
ACCAUGC	-0.11
GGUAGUA	-0.0826
CUAUUAG	-0.253
GCCCGUG	-0.258
UAUAUGA	-0.0283
GCUAGGG	0.298
AAUUGUA	0.175
